{"data": "Results pooled from the literature", "note": "A part holds a random share of what one study measured. Changes are numbered by the printed parent chain."}
{"data": "Series 1", "target": "CCNE1, cyclin fold, Cln2 fusion (human)", "technique": "yeast growth competition, sequencing", "medium": "yeast", "notes": "strong parent motif", "baseline": "not given", "reading": "higher = stronger binding", "parent": "CDC25A docking peptide (human); PPHRRRLLFACSP"}
{"Substitution": "PPHRRRLRFACSP [L8R]", "normalised enrichment score": 0.922}
{"Substitution": "PPHRRRMLFACSP [L7M]", "normalised enrichment score": 0.897}
{"Substitution": "PPHRRRLLFASSP [C11S]", "normalised enrichment score": 1.14}
{"Substitution": "PCHRRRLLFACSP [P2C]", "normalised enrichment score": 1.98}
{"Substitution": "PPHRRCLLFACSP [R6C]", "normalised enrichment score": 0.87}
{"Substitution": "PPHYRRLLFACSP [R4Y]", "normalised enrichment score": 0.936}
{"Substitution": "PEHRRRLLFACSP [P2E]", "normalised enrichment score": 1.64}
{"Substitution": "PPHCRRLLFACSP [R4C]", "normalised enrichment score": 3.41}
{"Substitution": "PPHRHRLLFACSP [R5H]", "normalised enrichment score": 1.19}
{"Substitution": "PPHRRRLLRACSP [F9R]", "normalised enrichment score": 1.47}
{"Substitution": "RPHRRRLLFACSP [P1R]", "normalised enrichment score": 1.13}
{"Substitution": "PPHRRRLLFACCP [S12C]", "normalised enrichment score": 1.64}
{"Substitution": "PPHRRRLLFACSQ [P13Q]", "normalised enrichment score": 1.55}
{"Substitution": "PPHRARLLFACSP [R5A]", "normalised enrichment score": 0.951}
{"Substitution": "PPHPRRLLFACSP [R4P]", "normalised enrichment score": 0.916}
{"data": "Series 2", "target": "Interferon regulatory factor 7, full length, phosphomimetic (IRF7, Homo sapiens, UniProt Q92985, residues 1-503, S101K/S471D/S472D/S475D/S476D/S477D/S483D/S484D/S487D)", "technique": "protein-binding microarray", "form": "double-stranded DNA, one strand shown", "medium": "in vitro", "concentration": "250 nM", "notes": "60-bp whole probe", "together with": "salmon DNA 0.4 mg/ml", "baseline": "random background probes", "reading": "higher = stronger binding", "all sequences stand within": "GCCTAGCAC … GTCTTGATTCGCTTGACGCTGCTG", "chain of UniProt Q92985 (whole entry, unmodified, looked up)": "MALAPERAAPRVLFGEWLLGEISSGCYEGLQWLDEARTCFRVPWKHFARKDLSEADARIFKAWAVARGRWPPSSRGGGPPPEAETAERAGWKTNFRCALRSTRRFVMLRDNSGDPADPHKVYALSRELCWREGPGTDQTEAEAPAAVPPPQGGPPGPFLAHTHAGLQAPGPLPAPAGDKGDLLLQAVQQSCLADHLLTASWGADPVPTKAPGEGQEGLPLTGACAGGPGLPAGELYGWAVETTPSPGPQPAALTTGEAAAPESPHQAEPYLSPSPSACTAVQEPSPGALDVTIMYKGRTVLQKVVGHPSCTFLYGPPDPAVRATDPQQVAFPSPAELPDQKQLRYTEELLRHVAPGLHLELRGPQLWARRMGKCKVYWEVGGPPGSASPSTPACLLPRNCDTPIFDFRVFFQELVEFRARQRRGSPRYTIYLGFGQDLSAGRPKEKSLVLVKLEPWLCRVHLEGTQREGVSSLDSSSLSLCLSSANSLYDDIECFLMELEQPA"}
{"Strand": "GACGGTATCGGTATCGGAACGTGCTAG", "log fluorescence [z-score]": 2}
{"Strand": "GACGTTATCGGGTATCGAGACGTGCTA", "log fluorescence [z-score]": 0.195}
{"Strand": "TTAGGTATCGGACTGAGTTAGTGCTAG", "log fluorescence [z-score]": 0.272}
{"Strand": "TTAGGTTTCCTGTTCCTTTAGTGCTAG", "log fluorescence [z-score]": 3.01}
{"Strand": "CCTTATTTAAGACCTATGCACGTGCTA", "log fluorescence [z-score]": 1.01}
{"Strand": "TTAGATTTCGAGTATCGATTAGTGCTA", "log fluorescence [z-score]": 1.62}
{"Strand": "CACTATTTAAGGCCTATGCACGTGCTA", "log fluorescence [z-score]": 0.584}
{"Strand": "TCATACTTCTGTTTTTGACTGTGCTAG", "log fluorescence [z-score]": 0.617}
{"Strand": "TTTTTTTTTTACTTCGGGTGGTGCTAG", "log fluorescence [z-score]": 0.677}
{"Strand": "GACGGTCTCGGTCGCGGGACGTGCTAG", "log fluorescence [z-score]": 0.0405}
{"Strand": "CAAACAGAGACCCGGCAAGTGTGCTAG", "log fluorescence [z-score]": 0.332}
{"Strand": "GACGGACTGGACTAACGGGACGTGCTA", "log fluorescence [z-score]": -0.739}
{"Strand": "GACGATATCAGTTTCGTGACGTGCTAG", "log fluorescence [z-score]": 2.06}
{"Strand": "GACGGTATCGGGACTGAGGACGTGCTA", "log fluorescence [z-score]": -0.4}
{"Strand": "GACCATTTCGGGTTTCGAGACGTGCTA", "log fluorescence [z-score]": 4.03}
{"Strand": "TTAGGACTGGGGTTTCGGATAGTGCTA", "log fluorescence [z-score]": 2.46}
{"Strand": "TTAGGTTTCGGAGTGGGTTAGTGCTAG", "log fluorescence [z-score]": 2.7}
{"Strand": "TTCGGTTTCGACACTGGGTTAGTGCTA", "log fluorescence [z-score]": 4.37}
{"Strand": "GACGGACTCGACACTGGGGACGTGCTA", "log fluorescence [z-score]": -0.219}
{"Strand": "CTCTCCATGTGTTTAAAAAGGTGCTAG", "log fluorescence [z-score]": 0.622}
{"Strand": "GACGTACTGCTTCTCCTGACGTGCTAG", "log fluorescence [z-score]": 0.313}
{"data": "Series 3", "target": "ABI1, truncated, D143A, DHFR fusion (Arabidopsis thaliana)", "technique": "DHFR PCA, deep sequencing", "medium": "yeast", "notes": "methotrexate growth selection, single substitutions", "together with": "(+)-ABA 0.0091 µM", "baseline": "wild-type fitted maximum", "reading": "higher = stronger binding", "parent": "PYL1, truncated, DHFR fusion (Arabidopsis thaliana); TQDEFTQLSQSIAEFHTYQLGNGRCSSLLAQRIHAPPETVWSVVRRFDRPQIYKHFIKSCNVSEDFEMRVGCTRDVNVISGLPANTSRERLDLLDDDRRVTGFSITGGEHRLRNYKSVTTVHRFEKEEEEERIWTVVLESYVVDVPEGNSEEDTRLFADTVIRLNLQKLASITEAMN"}
{"Substitution": "Q2D", "relative binding score [%]": 29}
{"Substitution": "L156A", "relative binding score [%]": 7.11}
{"Substitution": "H110C", "relative binding score [%]": 28.5}
{"Substitution": "V44M", "relative binding score [%]": 2.18}
{"Substitution": "Q19R", "relative binding score [%]": 28}
{"Substitution": "T73D", "relative binding score [%]": 0.452}
{"Substitution": "T154I", "relative binding score [%]": 36.4}
{"Substitution": "N85E", "relative binding score [%]": 41.5}
{"Substitution": "A170D", "relative binding score [%]": 4.01}
{"Substitution": "D48P", "relative binding score [%]": -6.8}
{"Substitution": "E4W", "relative binding score [%]": 16.7}
{"Substitution": "S11W", "relative binding score [%]": 14.7}
{"Substitution": "S59E", "relative binding score [%]": 27.2}
{"Substitution": "I162T", "relative binding score [%]": 8.45}
{"data": "Series 4", "target": "RNA binding protein fox-1 homolog 2, RRM domain, GST-SBP tag (RBFOX2, Homo sapiens, UniProt O43251-10, residues 100-194)", "technique": "RNA Bind-n-Seq", "form": "RNA", "medium": "in vitro", "concentration": "365 nM", "notes": "natural RNA segment, single round, ends assumed", "baseline": "no-protein control", "reading": "higher = stronger binding", "Residues (chain)": "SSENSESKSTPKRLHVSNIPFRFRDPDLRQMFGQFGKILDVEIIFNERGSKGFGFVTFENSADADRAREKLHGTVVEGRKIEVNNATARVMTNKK"}
{"Strand": "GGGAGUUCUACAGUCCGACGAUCCCCAACAGCAUCACUUAGGGGUGUGAAAAGAAGUAUUUUUGAACCUGUUGUCUGGUUUUGAAAAACAAUUAUCUUGUUUUGCAAAUUGUGGAAUGAUGUAAGCAAAUGCUUGGAAUUCUCGGGUGCCAA", "RBNS enrichment (R)": 0.452}
{"Strand": "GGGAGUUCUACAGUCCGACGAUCGGGAAAACACACACACGGAAAAAAAAUUGUAAGCACUUUUUUUGUAAAACCAAUGUCUGUUUUGUUACAUACCUUUCAUGUCGUGCUUUGUAAAUGUCUUAUUUGUGUAAUGGAAUUCUCGGGUGCCAA", "RBNS enrichment (R)": 0.56}
{"Strand": "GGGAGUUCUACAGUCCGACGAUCACUGCACGGGCCCUGCUCCUGCAACAUGGAACUGUCGCGUAGCACCUGUACAAGAGACCCGGCCACUCCACUCCCUCCUGUGACCUGGACCUCUCCCUGACUUCCUAACAUGGAAUUCUCGGGUGCCAA", "RBNS enrichment (R)": 0.471}
{"Strand": "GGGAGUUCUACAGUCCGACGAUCAGCUAGGCUGUUUCUGAUAUCCAAUCAUUGGUUUAACAAUAAAGGCAAUUUGUUUAAUCAGUUAACGGAAAUUUCUUGGCUUAUGAAAGUGAAAAGUCCAGUGGUAUUGGUGGAAUUCUCGGGUGCCAA", "RBNS enrichment (R)": 0.564}
{"Strand": "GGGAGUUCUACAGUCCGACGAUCGCAUGUCUCCCUGCCACCUGUCACCCAGGAGCUUUGACAUUAUUUCUGCUGCCAUACUCCCCUAGAACUGCUCGAACCCCCGUGCUUUUCUUUUUCUUCAUCUCCUUUUGUGGAAUUCUCGGGUGCCAA", "RBNS enrichment (R)": 1.44}
{"Strand": "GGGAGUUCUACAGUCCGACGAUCUUGUUUGAGGUAAAAGCCUUAAAAUUUAGCUCCCUAGCUCUUGAUUAGAAGCAAUUUGGAGUAAGUGUGUUUUGAUUUAGGCAGGGUAGCUUGGGAUACCUUUUUAAAAAUGGAAUUCUCGGGUGCCAA", "RBNS enrichment (R)": 0.659}
{"Strand": "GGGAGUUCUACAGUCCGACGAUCACGGGAAAAUUUUUGCUUGCUUGUGAAGCACCUGUCAGAGGACCCGCCUUCGAGCCUGCAGGAACUAGAACAAGACUAUGGGGAAUCCUUUCUAGUUGCCAUGGAAAAGCUGGAAUUCUCGGGUGCCAA", "RBNS enrichment (R)": 10.1}
{"Strand": "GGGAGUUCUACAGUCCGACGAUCUCUGCUGGAUUUGGGAGUUCCGCAUCUUUUGUGGAGGGCAGAGUAUGGACAUCUUACACCCGGUGGUCAAGUGUGUAAUAAACUUGAGCAUUCGAAUGGGAGAAAAAGCAUGGAAUUCUCGGGUGCCAA", "RBNS enrichment (R)": 11.2}
{"Strand": "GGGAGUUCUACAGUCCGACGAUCAGCUCACCUGGGGCCUCCCUGCUCACACCAAUGCAGGUUUCAAUAAAGACUCAGCCAUGCUUCCGUGACUACUGUGUUGAAUUUUAGCCGCCUGCUCCUAAAGGGAGUGGUGGAAUUCUCGGGUGCCAA", "RBNS enrichment (R)": 0.281}
{"Strand": "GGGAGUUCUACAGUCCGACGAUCAGAAUGUGGUAUUGGCCCUGGCCUAGCCCCUUCCACUUCCCAUAAUUCUUGCCUCUUUCCAUAAUUCAUGGUUUCAGUUCGACUUUGUAUAUAAAGUUGUUUGUUGGUUUUGGAAUUCUCGGGUGCCAA", "RBNS enrichment (R)": 0.255}
{"Strand": "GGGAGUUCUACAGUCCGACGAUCUGGGCACUGGAGCUACCCAGAGGAAUGCACAACGCUCCCCUCAAGGAGCUCACAGUCUAGCCUACUCCCUGGCUGGAAGCCUCAGGAAGACGUGCUAAUUUAUUGUGGAAUGGAAUUCUCGGGUGCCAA", "RBNS enrichment (R)": 0.661}
{"Strand": "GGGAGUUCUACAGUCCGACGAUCCCAGAGGAGCUUGUCUUCCUUGUCCUCUGUUCCCACCCUCCCCUGAACAGAACCCAGCCCAUAAGAGACAUUCUCAGAUGAAACUCUGUUUUCUUGCCCCAGUCAGGCUCUGGAAUUCUCGGGUGCCAA", "RBNS enrichment (R)": 0.587}
